Measured values gathered from unrelated publications.
A part holds a random share of what one study measured. Substitutions count along the parent as printed.

Series 1 — method: universal PBM; form: double-stranded DNA, one strand shown; sample: in vitro; concentration: not given; reading: higher = stronger binding
Target: Sal-like protein 4, full length isoform B (SALL4, Homo sapiens, UniProt Q9UJQ4-2, residues 1-616)
Notes: 8-mer, flanks averaged, mean of replicates
Sequence	E-score
AACACGCA	0.0957
CCGCCCAC	-0.226
CACACCTA	-0.013
AACCGTGT	-0.101
CACGATTA	0.132
GCATCCGA	-0.264
AGCTAATA	0.154
GCCAATCA	-0.0989
ATCGCTTG	-0.0635
AAGATCTG	-0.139
CTGATAAG	0.0568
ACGTCACG	0.0226
GGAACTGA	-0.115
CCGTGGAC	-0.247
AACAAGGC	-0.0818
CATCAATG	0.0436
CGTCAGAC	-0.0743
ATACCTCG	0.142
CACCAGGC	-0.269
CACTCTCG	-0.0477
AGAACTAC	0.0546
GTGGCTCA	-0.235
AATAGGAC	0.161
TAAGATAA	0.138
CAGTATAG	0.136

Series 2 — method: RNA Bind-n-Seq; form: RNA; sample: in vitro; concentration: 365 nM; baseline: no-protein control; reading: higher = stronger binding
Target: RNA binding protein fox-1 homolog 2, RRM domain, GST-SBP tag (RBFOX2, Homo sapiens, UniProt O43251-10, residues 100-194)
Notes: natural RNA segment, single round, ends assumed
All sequences stand within: GGGAGUUCUACAGUCCGACGAUC … UGGAAUUCUCGGGUGCCAA
Construct (chain): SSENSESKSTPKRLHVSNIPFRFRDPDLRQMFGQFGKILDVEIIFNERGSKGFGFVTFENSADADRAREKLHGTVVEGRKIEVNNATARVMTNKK
Sequence	RBNS enrichment (R)
UAGAUCUUGUUCCACCUCUAAUCUUUCCUCGUUGUCUGUUCUUAUGUAUUCUUCAGUUUUCCCACUUCUCAGUGUCUUCACUCUAAGGACUUUUCCUGUCACUGUGAACU	0.427
ACAUUUCUAUCACAAUCAUUUUAUGGAAGAUGUGUGAUAAUCUGUUUUUACUGGUAUUAAUAAACACAUACAAUGAAGAAAACAGAUAACAAAUUUUAAGACCAAGGUAA	0.344
UUUAUGUCUGCUCUGAGCCUUAAAACACAGGUUGAAGAAGAAAAGAAAGGAAAAAAAAGUGAAAGUUGGUAUUUAUUUCUGUGCUUUAAUUGUCUCUGAAAAUAAUGACA	0.636
CUUCUCCCUCCAGACCUUCCUCUGACCCUUGCUGAACUGGGGUCCCUUUGUGAGUGUCUCAGUCUAGAGGUACCUCCCUCCCUGGGGGGUCUCAGCUCCUGGAGUCGCAG	0.39
UUGAAUACUCCAUCCCCUUCCCUCCCAGUGAAUGGAAUGAGAAAAGCCUUCUUCCUUUGCUUCAGGCAGCUGUCACCUUCUCUUUAUUGGUGGUCCUAAGUGGGUCACUU	0.405
UUCUCCAAAGAAAUAUAAUUUUGGUUUUUGUUCCUCAGAGAGAGUUUGAAAGAAAUUUUCAGAUGUUCUGUUCCCUAUAGAGGGCCUAUUCCAGGAUCUAAAUGAAUGGG	0.352
CUGGUCUUUGGGAGGCAAUAGGCCACCAUGCCUGGUCAGCACCAAUUCAAGCCAUGCCAGGAAUCUGCCUACCUGCCAGGUUCAGUUCUUUUAAGGUGCCUCUUCAGGGA	0.359
CCAGCCUUCCCACAUCUUCCCAGGCCAAGAUGCAGGGGGCAGGCUGAAGAGAAAUUUGUGUGUCCUUGUUUGUUGCCUGAUCUUAGUUUCAUGGAAGAAAAUGGAAUCUA	1.12

Series 3 — method: DHFR PCA, deep sequencing; sample: yeast; together with: (+)-ABA 58 µM; baseline: wild-type fitted maximum; reading: higher = stronger binding
Target: ABI1, truncated, D143A, DHFR fusion (Arabidopsis thaliana)
Notes: methotrexate growth selection, single substitutions
Parent: PYL1, truncated, DHFR fusion (Arabidopsis thaliana); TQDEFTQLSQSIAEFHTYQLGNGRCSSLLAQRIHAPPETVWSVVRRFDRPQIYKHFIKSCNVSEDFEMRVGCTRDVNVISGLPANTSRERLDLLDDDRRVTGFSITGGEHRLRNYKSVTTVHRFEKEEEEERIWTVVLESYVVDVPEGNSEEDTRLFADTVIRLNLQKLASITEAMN
Substitution	relative binding score
S9T	86.3%
E89F	-0.277%
V137Y	3.37%
M68R	53.5%
I79W	85.9%
K54S	2.18%
R99T	43.8%
V142R	68.2%
C25W	3.49%
D65C	80.7%
R32P	63.7%
I33M	69.8%
Q167S	84.7%
F157T	4.57%
R132T	105%
T119S	41.6%
C60S	50.6%
G81W	-0.958%
C72P	3.14%
D144F	13.4%
L93H	91.8%
S140R	1.77%
F103A	-9.55%
R46G	55%

Series 4 — method: EMSA with sequencing; form: double-stranded DNA, one strand shown; sample: in vitro; concentration: 10 and 20 nM; baseline: negative control set to 0; reading: higher = stronger binding
Target: Hepatocyte nuclear factor 3-alpha (Foxa1, Mus musculus, UniProt P35582, residues 1-468, full length assumed)
Chain of UniProt P35582 (whole entry, looked up): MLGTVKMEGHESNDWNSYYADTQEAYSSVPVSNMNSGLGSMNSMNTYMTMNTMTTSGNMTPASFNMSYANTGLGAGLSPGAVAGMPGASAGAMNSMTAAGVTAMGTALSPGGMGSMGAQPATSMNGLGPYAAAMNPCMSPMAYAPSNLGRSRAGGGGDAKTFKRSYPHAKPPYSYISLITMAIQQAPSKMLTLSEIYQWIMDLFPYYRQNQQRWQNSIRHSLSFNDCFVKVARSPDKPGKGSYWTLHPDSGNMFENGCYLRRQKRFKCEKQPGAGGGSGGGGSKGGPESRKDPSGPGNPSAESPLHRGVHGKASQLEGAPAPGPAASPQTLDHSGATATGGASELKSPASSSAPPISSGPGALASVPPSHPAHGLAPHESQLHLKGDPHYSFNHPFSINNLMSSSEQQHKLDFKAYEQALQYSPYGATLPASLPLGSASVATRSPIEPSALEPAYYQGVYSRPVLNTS
Notes: whole designed probe, mean of two concentrations, ends assumed
All sequences stand within: GTGAGCGGTGCCCATTGATGGGGAAC … TTTCACTGGGATCGTGGGGAC
Sequence	normalised bound fraction [ratio]
ATCTTCCCCCTCTTCCTTGCCCCACCAGCTCACCTTCCCGGGTTATTTGCACAAAGGAAAATAAATAAAGCCGGCATTCGTTAACCCTCTTCTGGCGCAAACTGCTGTTTGCTCTGCATGAATCATGGTCCTTACGCGACGCCAGGCTCCGGGAGAGCAAAGCACCGTGTCAGGCGCATGATCCGGGGTGGCC	0.37
ATCTAATCCATACCAAGGATTCCCATGGGGAAACTGTTATCTCTCAACTCAGTGAGGGCTATTGACAAAGACCAGTGCTCTTTCTTCTCTGTAGGTAAACAGTGACTCATGCAAGCCTGAGGGAGAAAATACAGTATATCTAAGAGTTAAGACCTCCCAGCTTCACATTCTGTTATAGCAGCTGCTTCATGCC	0.227
ATTTTTTTAATACTGAGTTTTATCTGCAACAGTAAAACATATATGAAGGAATTCTGCCTTCACAACAAATGGCTCCCAGATAAAGAGAGCCATGTTTACTTATATTTATAGGTCAAATATAACATCTTGCAATCCTGATTGGATTACATTTGGGTCAGTTTTAATAAAAGCAAGAAATTCCTATCTTCGGTAA	0.353
ATTGATATAATAAAAAAACACTGATAAAGTTTATTAAAACACTTAAAGGACATTTCTCATTTTGCATAATATTTTGTAATAAAATCATCTATGTAATTTTGGAAAATGTGTAGGGAAGTGAGAAGAACATTAACCACACAAAGTGTACCCCTGAGTCTCTATGAGATTTCATTTCCTTTTGTAAAATAAAATG	0.0291
ATATTCAGCAGAGTGGTCCTAGGTAGAACATTCTGTGTCAAAATATCAAAAGGCATTGACAAGAGAAATCGACAGAGAATTAGGTTAGCAGAGTAATCTGGTATTCTGTAACCTTCTCAAGTGCTGTGCCTGCTTAGGGAAATACTATTCTTATAAAGTCTTATTCTTCCGCATAATGAATAGTCATTTCCAC	-0.0766

Series 5 — method: protein binding microarray; form: double-stranded DNA, one strand shown; sample: in vitro; concentration: not given; baseline: not given; reading: higher = stronger binding
Target: Histone acetyltransferase KAT6A, winged helix 2, GST fusion (KAT6A, Homo sapiens, UniProt Q92794, residues 85-181)
Notes: 8-mer, flanks averaged, mean of 2 arrays, mostly near background
Target sequence (chain): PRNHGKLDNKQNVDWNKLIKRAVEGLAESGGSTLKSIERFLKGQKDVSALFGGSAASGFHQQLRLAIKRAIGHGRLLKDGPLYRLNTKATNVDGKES
Sequence	E-score
CTGTGGCC	0.0445
ATCGGACG	0.0034
AACAACAT	0.0225
AGGACTAC	-0.159
CATCAGAC	-0.0868
GGTGTGAA	0.0757
ACAACCCC	-0.307
CCTAAAGA	-0.0695
TAGGAGAA	-0.135
ACTACAGA	-0.00337
GAATTCTA	0.0195
CGGGGCAG	0.128
AGCGCGAT	0.0543
ACGACTGC	-0.125
CTCAGCCA	-0.187
TGCGGACA	0.0844
AGTTGGAC	-0.134
ACCTTGTG	0.0427
CCCCCTTC	-0.0131
CGGTACGA	-0.0778

Further values, each from its own experiment
Substance	target	assay	test system	conditions	how to read	quantity	result
PhoQ, residues 284 288 289 292 302 303 TAVSDG	PhoP, residues 12 14 15 18 19 LYFRQ (Escherichia coli, UniProt P23836)	Sort-seq, refers to: YFP reporter	E. coli	PhoQ-PhoP variant library, together with: 10 µM Mg2+	baseline: high Mg2+ state, higher = stronger signaling	fold induction	3.71

Repeated from above (series 3):
Substitution	relative binding score
C25W	3.49%
D65C	80.7%
R32P	63.7%
I33M	69.8%
Q167S	84.7%
F157T	4.57%
R132T	105%
T119S	41.6%
C60S	50.6%
G81W	-0.958%
C72P	3.14%
D144F	13.4%
